Published values from different studies.
Every numbered part comes from another study and shows a few of its results, in no order. “And” joins repeats or separate records; there may be more than shown.
Sequence of UniProt P51957 (whole entry, looked up): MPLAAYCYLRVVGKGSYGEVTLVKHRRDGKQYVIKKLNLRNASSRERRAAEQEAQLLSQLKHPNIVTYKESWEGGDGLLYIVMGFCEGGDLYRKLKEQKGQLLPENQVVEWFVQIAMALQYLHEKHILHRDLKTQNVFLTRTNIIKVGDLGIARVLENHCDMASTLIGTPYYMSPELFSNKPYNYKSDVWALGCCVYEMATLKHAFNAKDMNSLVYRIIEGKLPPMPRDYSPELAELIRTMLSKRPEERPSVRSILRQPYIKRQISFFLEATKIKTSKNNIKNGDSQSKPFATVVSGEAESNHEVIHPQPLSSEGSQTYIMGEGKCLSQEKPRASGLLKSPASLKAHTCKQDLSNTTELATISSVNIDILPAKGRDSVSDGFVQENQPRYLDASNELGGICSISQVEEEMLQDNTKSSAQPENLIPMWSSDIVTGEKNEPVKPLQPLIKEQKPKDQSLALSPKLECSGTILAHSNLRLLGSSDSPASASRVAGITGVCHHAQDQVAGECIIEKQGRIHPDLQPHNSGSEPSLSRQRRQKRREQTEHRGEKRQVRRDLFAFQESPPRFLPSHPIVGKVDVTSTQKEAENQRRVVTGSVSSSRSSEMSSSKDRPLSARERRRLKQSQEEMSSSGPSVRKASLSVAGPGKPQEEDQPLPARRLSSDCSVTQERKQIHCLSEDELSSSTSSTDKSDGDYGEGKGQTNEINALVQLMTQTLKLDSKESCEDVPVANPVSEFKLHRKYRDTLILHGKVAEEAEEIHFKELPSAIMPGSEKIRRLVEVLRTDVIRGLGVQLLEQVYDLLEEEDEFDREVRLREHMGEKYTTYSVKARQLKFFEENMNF
Sequence of UniProt P49841 (whole entry, looked up): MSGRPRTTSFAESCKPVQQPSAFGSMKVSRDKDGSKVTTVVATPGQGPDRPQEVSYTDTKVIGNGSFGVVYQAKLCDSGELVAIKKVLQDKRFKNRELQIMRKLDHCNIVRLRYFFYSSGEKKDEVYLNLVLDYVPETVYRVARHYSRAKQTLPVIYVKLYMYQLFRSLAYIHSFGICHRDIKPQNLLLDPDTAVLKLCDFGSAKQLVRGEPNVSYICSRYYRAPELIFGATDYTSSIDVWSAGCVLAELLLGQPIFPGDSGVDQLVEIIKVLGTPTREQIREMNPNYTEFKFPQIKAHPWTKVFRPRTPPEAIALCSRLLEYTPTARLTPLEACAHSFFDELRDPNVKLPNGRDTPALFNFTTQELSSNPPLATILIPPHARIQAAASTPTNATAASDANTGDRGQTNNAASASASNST
Sequence of UniProt P27037 (whole entry, looked up): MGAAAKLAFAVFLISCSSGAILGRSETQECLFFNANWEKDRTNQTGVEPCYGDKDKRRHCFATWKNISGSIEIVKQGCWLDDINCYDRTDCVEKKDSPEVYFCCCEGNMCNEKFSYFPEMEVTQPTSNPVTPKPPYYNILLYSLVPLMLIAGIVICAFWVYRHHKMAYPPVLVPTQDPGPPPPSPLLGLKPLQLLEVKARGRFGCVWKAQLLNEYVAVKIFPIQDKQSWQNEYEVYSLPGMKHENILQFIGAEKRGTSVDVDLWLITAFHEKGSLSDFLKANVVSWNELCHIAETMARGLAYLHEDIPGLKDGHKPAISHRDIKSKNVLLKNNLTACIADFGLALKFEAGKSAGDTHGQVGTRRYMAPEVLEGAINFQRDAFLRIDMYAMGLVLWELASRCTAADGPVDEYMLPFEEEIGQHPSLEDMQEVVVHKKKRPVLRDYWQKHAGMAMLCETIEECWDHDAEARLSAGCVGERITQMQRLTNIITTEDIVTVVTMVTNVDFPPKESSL
Sequence of UniProt P16234 (whole entry, looked up): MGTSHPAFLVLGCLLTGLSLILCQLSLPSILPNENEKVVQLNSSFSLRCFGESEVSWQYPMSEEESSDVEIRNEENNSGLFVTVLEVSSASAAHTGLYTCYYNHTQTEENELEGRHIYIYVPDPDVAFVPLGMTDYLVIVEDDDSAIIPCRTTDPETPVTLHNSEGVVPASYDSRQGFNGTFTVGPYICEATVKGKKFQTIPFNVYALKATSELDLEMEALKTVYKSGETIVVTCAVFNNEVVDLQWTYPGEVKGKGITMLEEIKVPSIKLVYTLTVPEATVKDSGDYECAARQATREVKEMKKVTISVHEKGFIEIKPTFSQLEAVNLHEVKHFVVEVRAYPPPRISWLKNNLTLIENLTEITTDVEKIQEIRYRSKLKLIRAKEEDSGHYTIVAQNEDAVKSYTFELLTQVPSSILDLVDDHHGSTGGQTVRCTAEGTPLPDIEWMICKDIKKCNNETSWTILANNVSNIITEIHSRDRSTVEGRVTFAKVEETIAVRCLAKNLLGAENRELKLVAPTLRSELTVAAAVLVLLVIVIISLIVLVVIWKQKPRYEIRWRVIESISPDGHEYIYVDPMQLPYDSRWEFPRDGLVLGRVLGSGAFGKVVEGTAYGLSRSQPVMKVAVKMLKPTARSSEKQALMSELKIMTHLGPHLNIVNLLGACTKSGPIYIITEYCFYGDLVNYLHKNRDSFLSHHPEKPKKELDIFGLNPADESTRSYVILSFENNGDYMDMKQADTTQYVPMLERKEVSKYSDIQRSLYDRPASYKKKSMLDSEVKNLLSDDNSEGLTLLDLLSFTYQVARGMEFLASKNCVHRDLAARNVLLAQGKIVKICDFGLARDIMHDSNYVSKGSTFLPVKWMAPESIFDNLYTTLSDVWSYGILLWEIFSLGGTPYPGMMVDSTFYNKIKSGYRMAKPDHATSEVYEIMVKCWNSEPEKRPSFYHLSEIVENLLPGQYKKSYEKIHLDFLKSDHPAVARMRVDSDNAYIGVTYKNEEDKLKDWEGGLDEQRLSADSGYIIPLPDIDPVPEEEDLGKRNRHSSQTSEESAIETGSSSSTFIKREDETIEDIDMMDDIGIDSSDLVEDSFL
Sequence of UniProt P35590 (whole entry, looked up): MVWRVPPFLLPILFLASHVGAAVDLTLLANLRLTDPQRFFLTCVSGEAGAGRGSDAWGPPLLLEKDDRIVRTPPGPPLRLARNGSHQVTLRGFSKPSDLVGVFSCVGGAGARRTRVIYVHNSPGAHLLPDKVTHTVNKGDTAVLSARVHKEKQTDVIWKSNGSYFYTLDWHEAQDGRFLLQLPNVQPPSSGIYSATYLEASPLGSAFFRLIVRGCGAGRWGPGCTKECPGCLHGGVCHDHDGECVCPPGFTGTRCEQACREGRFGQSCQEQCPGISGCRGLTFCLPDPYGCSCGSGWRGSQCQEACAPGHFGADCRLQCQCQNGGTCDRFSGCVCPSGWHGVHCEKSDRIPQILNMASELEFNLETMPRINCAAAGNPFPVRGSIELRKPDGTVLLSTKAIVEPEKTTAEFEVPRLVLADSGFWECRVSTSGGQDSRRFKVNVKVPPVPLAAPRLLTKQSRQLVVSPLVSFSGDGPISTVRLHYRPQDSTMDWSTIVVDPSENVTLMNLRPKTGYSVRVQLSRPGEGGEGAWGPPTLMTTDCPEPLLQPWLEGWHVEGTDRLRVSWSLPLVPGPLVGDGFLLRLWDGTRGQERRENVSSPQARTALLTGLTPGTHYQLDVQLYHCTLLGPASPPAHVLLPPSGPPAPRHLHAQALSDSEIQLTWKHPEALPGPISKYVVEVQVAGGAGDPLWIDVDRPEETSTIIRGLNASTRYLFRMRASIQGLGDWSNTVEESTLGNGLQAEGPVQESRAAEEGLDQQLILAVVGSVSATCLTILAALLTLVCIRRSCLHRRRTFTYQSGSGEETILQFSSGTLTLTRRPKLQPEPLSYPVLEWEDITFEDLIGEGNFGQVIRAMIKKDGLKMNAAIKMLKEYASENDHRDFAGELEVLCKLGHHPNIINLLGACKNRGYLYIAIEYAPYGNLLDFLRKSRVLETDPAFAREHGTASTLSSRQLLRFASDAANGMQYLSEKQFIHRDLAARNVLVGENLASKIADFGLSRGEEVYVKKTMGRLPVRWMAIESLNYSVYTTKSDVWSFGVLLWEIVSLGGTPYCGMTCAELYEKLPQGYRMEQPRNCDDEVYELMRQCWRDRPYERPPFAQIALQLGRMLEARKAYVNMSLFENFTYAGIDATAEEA

Study 1 — organism: Sarcocystis neurona; observed: parasite activity; concentration: 10 µM; time: 96 h
For `Nc1nc(F)nc2c1ncn2[C@@H]1O[C@H](CO)[C@@H](O)[C@@H]1O`, activity class read “inactive”.
For `CNC(=C[N+](=O)[O-])NCCSCc1ccc(CN(C)C)o1`, activity class read “inactive”.
Under activity class, `CC[C@H]1OC(=O)[C@H](C)C(=O)[C@H](C)[C@@H](O[C@@H]2O[C@H](C)C[C@H](N(C)C)[C@H]2O)[C@](C)(OC)C[C@@H](C)C(=O)[C@H](C)[C@H]2N(CCCCn3cnc(-c4cccnc4)c3)C(=O)O[C@]12C` is recorded as “inactive”.
`O=C1CC2(CCCC2)CC(=O)N1CCCCN1CCN(c2ncccn2)CC1`: activity class “inactive”.
`Cc1ncc([N+](=O)[O-])n1CC(O)CCl` (stereo not drawn): activity class “inactive”.
`O=C(CCNNC(=O)c1ccncc1)NCc1ccccc1`: activity class “inactive”.
`NC12CC3CC(CC(C3)C1)C2` — result for activity class: “inactive”.
For `O=C1c2cccc3c2[C@H](CCC3)CN1[C@@H]1CN2CCC1CC2`, activity class read “inactive”.

Study 2 — Compound: C=CCc1ccc(O)c(-c2cc(CC=C)ccc2O)c1; observed: chloride current; technique: whole-cell patch clamp
Target: Anoctamin-1 (ANO1, Homo sapiens, UniProt Q5XXA6, del476-501)
Sequence of UniProt Q5XXA6 (whole entry, unmodified, looked up): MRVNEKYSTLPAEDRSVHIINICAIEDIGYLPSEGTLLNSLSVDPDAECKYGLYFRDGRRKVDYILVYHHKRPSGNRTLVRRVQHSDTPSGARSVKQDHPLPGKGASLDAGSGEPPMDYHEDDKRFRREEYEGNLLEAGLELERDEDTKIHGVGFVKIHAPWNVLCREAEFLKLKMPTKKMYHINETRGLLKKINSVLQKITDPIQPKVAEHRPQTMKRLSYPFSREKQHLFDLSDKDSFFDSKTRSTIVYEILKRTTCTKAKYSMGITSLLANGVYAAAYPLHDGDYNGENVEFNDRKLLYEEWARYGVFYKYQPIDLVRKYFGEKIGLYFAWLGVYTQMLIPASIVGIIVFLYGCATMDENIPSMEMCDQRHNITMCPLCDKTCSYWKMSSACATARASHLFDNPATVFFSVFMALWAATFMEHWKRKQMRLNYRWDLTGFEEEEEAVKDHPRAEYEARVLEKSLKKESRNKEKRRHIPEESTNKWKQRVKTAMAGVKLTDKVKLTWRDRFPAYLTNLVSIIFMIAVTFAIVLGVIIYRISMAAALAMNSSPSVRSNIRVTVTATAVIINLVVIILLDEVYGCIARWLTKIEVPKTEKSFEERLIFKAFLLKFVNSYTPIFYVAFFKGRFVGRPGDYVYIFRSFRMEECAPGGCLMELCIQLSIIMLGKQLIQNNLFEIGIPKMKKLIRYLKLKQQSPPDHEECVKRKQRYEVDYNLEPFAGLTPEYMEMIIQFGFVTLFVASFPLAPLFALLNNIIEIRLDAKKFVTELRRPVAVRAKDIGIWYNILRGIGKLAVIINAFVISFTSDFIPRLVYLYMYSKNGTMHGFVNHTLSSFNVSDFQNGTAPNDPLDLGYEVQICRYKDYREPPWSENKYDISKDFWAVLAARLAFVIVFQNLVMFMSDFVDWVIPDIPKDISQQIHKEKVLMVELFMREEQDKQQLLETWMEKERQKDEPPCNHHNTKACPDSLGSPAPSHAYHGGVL
10 µM, -80 mV, 300 nM free Ca2+ — normalised current: -0.0701.
10 µM, -20 mV, 300 nM free Ca2+ — normalised current: -0.0343.
1 µM, 80 mV, 300 nM free Ca2+ — normalised current: 0.615.
The normalised current was -0.0968 (1 µM, -80 mV, 300 nM free Ca2+).
It gave 0.0147 for normalised current (100 µM, 20 mV, 300 nM free Ca2+).
30 µM, 100 mV, 300 nM free Ca2+, with: honokiol and magnolol 3 µM — normalised current: 0.305.
The normalised current was -0.0565 (10 µM, -60 mV, 300 nM free Ca2+, with: honokiol and magnolol 3 µM).
It gave 0.179 for normalised current (30 µM, 80 mV, 300 nM free Ca2+, with: honokiol and magnolol 3 µM).
The normalised current was 0.146 (100 µM, 100 mV, 300 nM free Ca2+, with: honokiol and magnolol 3 µM).

Study 3 — species: nude mouse, HH xenograft; dose: dose not given
Compound: CC(C)(C)c1cnc(CSc2cnc(NC(=O)C3CCNCC3)s2)o1
day 2 — tumour volume: 26.3 mm³ and 36.9 mm³ and 30.1 mm³ and 28.3 mm³ and 30.8 mm³ and 37.5 mm³ and 19.4 mm³ and 31.9 mm³.
For day 15: tumour volume read 231 mm³ and 57.3 mm³ and 22.6 mm³ and 49 mm³ and 244 mm³ and 38 mm³ and 164 mm³ and 174 mm³.
It gave 28.8 mm³ and 40.8 mm³ and 43.5 mm³ and 8.79 mm³ and 30.4 mm³ and 36.8 mm³ and 49.6 mm³ and 41.9 mm³ for tumour volume (day 8).
day 0 — tumour volume: 0 mm³.

Study 4 — concentration: 1 µM
SMILES: CO[C@@H](C)c1c(Nc2ccc([C@@H](N(C)C(=O)C3CCS(=O)(=O)CC3)C(F)(F)F)cc2)cnc2cc(Cl)nn12
For Serine/threonine-protein kinase Nek4 (NEK4, Homo sapiens, UniProt P51957); cell-free assay, competition with immobilised ligand: remaining binding read 90%.
Platelet-derived growth factor receptor alpha (PDGFRA, Homo sapiens, UniProt P16234); cell-free assay, competition with immobilised ligand — remaining binding: 100%.
The remaining binding was 99% (Casein kinase I isoform gamma-1 (CSNK1G1, Homo sapiens, UniProt Q9HCP0); cell-free assay, competition with immobilised ligand).
The remaining binding was 59% (Tyrosine-protein kinase ABL1, phosphorylated (ABL1, Homo sapiens, UniProt P00519, M351T); cell-free assay, competition with immobilised ligand).
It gave 99% for remaining binding (Membrane-associated tyrosine- and threonine-specific cdc2-inhibitory kinase (PKMYT1, Homo sapiens, UniProt Q99640); cell-free assay, competition with immobilised ligand).
The remaining binding was 96% (Tyrosine-protein kinase receptor Tie-1 (TIE1, Homo sapiens, UniProt P35590); cell-free assay, competition with immobilised ligand).
The remaining binding was 94% (Mitogen-activated protein kinase kinase kinase kinase 3 (MAP4K3, Homo sapiens, UniProt Q8IVH8); cell-free assay, competition with immobilised ligand).
It gave 100% for remaining binding (Glycogen synthase kinase-3 beta (GSK3B, Homo sapiens, UniProt P49841); cell-free assay, competition with immobilised ligand).
For MAP/microtubule affinity-regulating kinase 4 (MARK4, Homo sapiens, UniProt Q96L34); cell-free assay, competition with immobilised ligand: remaining binding read 89%.
The remaining binding was 100% (Activin receptor type-2A (ACVR2A, Homo sapiens, UniProt P27037); cell-free assay, competition with immobilised ligand).
For Cyclin-dependent kinase 13 (CDK13, Homo sapiens, UniProt Q14004); cell-free assay, competition with immobilised ligand: remaining binding read 100%.
It gave 89% for remaining binding (Ribosomal protein S6 kinase alpha-2, C-terminal kinase domain (RPS6KA2, Homo sapiens, UniProt Q15349); cell-free assay, competition with immobilised ligand).
It gave 84% for remaining binding (Fibroblast growth factor receptor 3 (FGFR3, Homo sapiens, UniProt P22607, G697C); cell-free assay, competition with immobilised ligand).
The remaining binding was 86% (Serine/threonine-protein kinase MRCK gamma (CDC42BPG, Homo sapiens, UniProt Q6DT37); competition binding).
The remaining binding was 100% (Tyrosine-protein kinase ABL1, phosphorylated (ABL1, Homo sapiens, UniProt P00519, Q252H); cell-free assay, competition with immobilised ligand).
